Results pooled from the literature.
Numbered parts are unrelated; each lists some results of a single study. Substitutions count along the parent as printed.

Set 1
Target: Fragile X messenger ribonucleoprotein 1, C-terminal low-complexity region (Fmr1, Mus musculus, UniProt P35922)
Technique: RNA Bind-n-Seq
Molecule type: RNA
Medium: in vitro
Tested at: 200 nM
Setting: whole 134-nt RNA, ends assumed
Together with: 150 mM KCl
Relative to: input library
Direction: higher = stronger binding
Constant ends, left off below: GGGAGUUCUACAGUCCGACGAUC … UGGAAUUCUCGGGUGUCAAGG
Strand	log2 enrichment
CAAGUCCUGUGCUACACAUCGUAUGUACCGAAUCGGGUUUGGGUUUGGGUUUGGGGAAAGUAUUAUGUUACGCCGUUCGGAUCUGCACUU	1.07
UCAAGUCCUGUGCUACACAUCGUAUGUACCGAAUCGGGUUUUUGGGUGGGUGGGAAAGUAUUAUGUUACGCCGUUCGGAUCUGCACUUCC	1.14
AGUCCUGUGCUACACAUCGUAUGUACCGAAUCGGGGAAAAAGGGGAGGGGAAAGGGGAAAGUAUUAUGUUACGCCGUUCGGAUCUGCACU	0.275
UCCUGUGCUACACAUCGUAUGUACCGAAUCGGGGUUUUUUUGGGGUUUGGGGAAAGGGGAAAGUAUUAUGUUACGCCGUUCGGAUCUGCA	0.809
AGUCCUGUGCUACACAUCGUAUGUACCGAAUCGGGAAAGGGAAAAAGGGUUUUUGGGAAAGUAUUAUGUUACGCCGUUCGGAUCUGCACU	0.0108
UCCUGUGCUACACAUCGUAUGUACCGAAUCGGGGAAAAAGGGGUUUGGGGAAAAAGGGGAAAGUAUUAUGUUACGCCGUUCGGAUCUGCA	0.561
AAGUCCUGUGCUACACAUCGUAUGUACCGAAUCGGGAGGGAAAGGGAAAAAAAGGGAAAGUAUUAUGUUACGCCGUUCGGAUCUGCACUU	0.13
CUGUGCUACACAUCGUAUGUACCGAAUCAAAUUUUUUUAAAUUUUUUUAAAUUUUUUUAAAAAAGUAUUAUGUUACGCCGUUCGGAUCUG	-1.63

Set 2
Target: Sal-like protein 4, full length isoform A (SALL4, Homo sapiens, UniProt Q9UJQ4, residues 1-1053)
Chain of UniProt Q9UJQ4 (whole entry, looked up): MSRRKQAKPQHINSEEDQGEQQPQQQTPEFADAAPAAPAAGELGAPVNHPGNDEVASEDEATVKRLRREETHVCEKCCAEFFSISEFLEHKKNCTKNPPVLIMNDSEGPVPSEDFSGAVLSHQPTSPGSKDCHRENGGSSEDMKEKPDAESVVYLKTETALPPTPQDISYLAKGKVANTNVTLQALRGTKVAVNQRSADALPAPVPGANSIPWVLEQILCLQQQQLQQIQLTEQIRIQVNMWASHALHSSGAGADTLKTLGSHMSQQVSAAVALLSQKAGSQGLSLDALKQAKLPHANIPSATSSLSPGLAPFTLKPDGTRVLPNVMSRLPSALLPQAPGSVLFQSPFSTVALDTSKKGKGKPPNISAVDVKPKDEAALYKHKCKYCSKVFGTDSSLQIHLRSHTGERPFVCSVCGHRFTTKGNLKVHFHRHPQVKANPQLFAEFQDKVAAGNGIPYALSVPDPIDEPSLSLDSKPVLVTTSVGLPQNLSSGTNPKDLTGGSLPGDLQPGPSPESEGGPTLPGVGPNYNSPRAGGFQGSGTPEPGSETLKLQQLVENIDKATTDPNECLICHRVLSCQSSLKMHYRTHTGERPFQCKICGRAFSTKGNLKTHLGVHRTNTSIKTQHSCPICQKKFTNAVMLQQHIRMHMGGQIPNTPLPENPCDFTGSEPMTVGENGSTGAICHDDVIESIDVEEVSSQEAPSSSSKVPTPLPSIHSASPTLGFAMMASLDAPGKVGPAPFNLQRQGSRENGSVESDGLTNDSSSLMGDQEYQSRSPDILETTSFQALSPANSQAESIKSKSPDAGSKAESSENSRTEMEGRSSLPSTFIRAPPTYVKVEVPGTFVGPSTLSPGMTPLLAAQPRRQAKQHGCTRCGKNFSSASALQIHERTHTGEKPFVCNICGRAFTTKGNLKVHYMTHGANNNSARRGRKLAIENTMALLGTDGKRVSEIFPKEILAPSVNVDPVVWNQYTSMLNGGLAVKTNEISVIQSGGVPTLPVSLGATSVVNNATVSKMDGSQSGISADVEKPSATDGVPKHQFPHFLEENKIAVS
Technique: universal PBM
Molecule type: double-stranded DNA, one strand shown
Medium: in vitro
Tested at: 600 nM
Setting: 8-mer, flanks averaged, mean of replicates
Direction: higher = stronger binding
Strand	E-score
GGTGGGAA	-0.165
CCCACCGG	-0.334
CAGATGAA	0.108
TCCGTAGA	-0.0324
AAACTTGC	0.137
ACGAACAG	-0.078
ATTAATAG	0.427
CCGATGCG	-0.241

Set 3
Target: TAR DNA-binding protein 43, full length, His tag (TARDBP, Homo sapiens, UniProt Q13148, residues 1-414)
Technique: RNA Bind-n-Seq
Molecule type: RNA
Medium: in vitro
Tested at: 20 nM
Setting: 6-mer, flanks averaged, single round
Together with: 150 mM LiCl
Relative to: input library
Direction: higher = stronger binding
Strand	6-mer enrichment (R)
GUAAAG	0.948
GGAGAC	0.957
UUUAUC	1.06
UUUUCA	1.09
ACCGUG	0.926
AAGUUA	0.911
GGUACC	0.92
GUGGUA	1.3

Single results of other studies
Starting sequence: viral docking peptide; PGASRRLFGSSAD
Variant	target	assay	system	conditions	scale	quantity	value
PGASRRLFGSSAA [D13A]	CCND2, cyclin fold, Cln2 fusion (human)	yeast growth competition, sequencing	yeast	weak parent motif	relative to: not given, higher = stronger binding	normalised enrichment score	0.153
